Measurements collected from several papers.
“And” joins repeats or separate records; there may be more than shown. Numbers after ± are the reported error.

SMILES	cell line	test	conditions	scale	measurement	result
O=C(CCCCCOc1ccc2ccccc2c1)N[C@@H](CO)C[C@@H](O)c1ccc(-c2ccccc2)cc1	HeLa	CERT activity, HPLC-MS/MS lipidomics, refers to: sphingomyelin 16	1 µM, 24 h, not cell-number normalised	–	sphingomyelin level	619000 pmol/sample and 667000 pmol/sample and 673000 pmol/sample
CC(C)(C)c1cc(-c2ccc3cc4ccccc4nc3n2)nc(-c2ccc3cc4ccccc4nc3n2)c1.[Cl-].[Cl-].[Ru+2].c1ccc2cc3nc4c5cccnc5c5ncccc5c4nc3cc2c1	A-375	–	visible light 100 J/cm2	baseline: dark EC50 over light EC50	phototherapeutic index	25
COC(=O)c1cc(NC2=NC(=O)C(=Cc3ccc(N(C)C)cc3)S2)ccc1OC(C)=O	MCF7	refers to: CDC45 mRNA	0.81 µM (IC50), 24 h	baseline: DMSO	fold change	0.143
Cc1cc(C)nc(SCC(=O)Nc2ncc(Cc3cccc(OCc4cn(Cc5ccc(C#N)cc5)nn4)c3)s2)n1	PC-3M-luc	cell viability, MTS	10 µM	–	inhibition	33.8 ± 2.1%
COc1ccccc1-c1ccncc1C(=O)Nc1nnc(OCc2ccc(Cl)cc2)s1	MDA-MB-231 BRCA1 wild-type	–	0.75 µM	baseline: vehicle control	colony survival	87% and 101%
CCOc1cncc(-c2ccc(NC(=O)C3(c4ccnc(NS(=O)(=O)C5CC5)n4)CCOCC3)nc2)n1	SR-786	cell growth or viability, ATP luminescence	72 h	–	IC50	107 nM
CN(C)CCN1CCN(c2ccc3nc(-c4ccc5nc(-c6ccc(C(F)(F)F)cc6)[nH]c5c4)[nH]c3c2)CC1	RXF 393	SRB	10 µM, 48 h	–	growth percent	50.3%
CO[C@@H]1[C@@H](OC(N)=O)[C@@H](O)[C@H](Oc2ccc3c(O)c(NC(=O)c4ccc(O)c(CC=C(C)C)c4)c(=O)oc3c2C)OC1(C)C	HCT-116 parental	–	100 µM, replicate 2	–	colony count	17
Cn1c(=O)n(C2CCC(=O)NC2=O)c2ccc(C3CCN(CC(=O)Nc4cccc(CS(=O)(=O)N5CC[C@H](Nc6cccc(-c7sc(C(=O)O)c(OCC(=O)O)c7Cl)c6)CC5(C)C)c4)CC3)cc21 (some centres unmarked)	B16-F10	HTRF, refers to: phospho-STAT1 Tyr701	10 µM, with: IFN-γ	baseline: DMSO	fold change	5.77 and 5.5 and 5.17 and 4.36 and 5.37 and 5.57
Cn1ncc(-c2ccc3c(=O)[nH]nc(CN)c3c2)c1-c1c(F)c(Cl)cc(OC2CC2)c1C#N	NCI-H292	cell viability, inhibitor, CellTiter-Glo	120 h, baseline-subtracted	–	IC50	150 nM
CNS(=O)(=O)Nc1nccc(Cc2c(C)c3ccc(Oc4ncccc4F)cc3oc2=O)c1F	LS-123	cell viability	7 days	–	IC50	408 nM
C=CC(=O)N1CCCC(n2c(=O)c3ncccc3n(Cc3ccc(Oc4ccccc4)cc3)c2=O)C1 (centres unmarked)	Ri-1	cell growth or viability, MTT	72 h	–	IC50	7500 nM
C=C1C[C@]2(C(=O)OC)C=C(C(=O)Nc3cccc(C(=O)Nc4ccc(Nc5nccc(-c6cccnc6)n5)c(C)c4)c3)C(=O)[C@H]1C2	AP1 reporter HEK293	AP1 reporter gene, inhibitor	10 µM, 6 h, compound kept in medium, unit not given, with: PMA	baseline: PMA alone	reporter activity	0.121
CN1CCCNC(=O)c2cccc(c2)C(=O)NCCCN(C)CCCNc2cccc3c2C(=O)c2cccc(c2C3=O)NCCC1	SAS	RNA-Seq, refers to: SAFB2 mRNA	1 µM, 6 h	baseline: untreated cells	log2 fold change	0.584
COCCCCCNc1nc(NCCCCCCN(C)C)c2cc(NC(=O)/C=C/CN(C)C)ccc2n1	MCF7	CellTiter-Glo	50 µM, 48 h, unit not given	baseline: DMSO-treated cells	viability	0.948 and 0.901 and 0.955
Cc1ncsc1-c1ccc(C(C)NC(=O)C2CC(O)CN2C(=O)C(NC(=O)CCCCCCCCCCN2CCCC(Nc3ncc(Cl)c(Nc4ccccc4S(=O)(=O)C(C)C)n3)C2)C(C)(C)C)cc1 (centres unmarked)	22Rv1	RNA-seq, refers to: ZNF730 mRNA	concentration not given	baseline: DMSO	log2 fold change	-1.98
C=CC(=O)N1[C@H](c2ccc3c(c2)OCO3)c2[nH]c3ccccc3c2C[C@@H]1C(=O)NC	rat DRG neurons	–	0.1235 µM, 48 h, with: vincristine 40 nM	–	mean neuron degeneration	59.7%
Cc1cc(-c2ccc(S(=O)(=O)C3CC(C(=O)NC4(C#N)CC4)N(C(=O)C4(C(F)(F)F)CC4)C3)c(C(F)(F)F)c2)ccn1 (centres unmarked)	MDA-MB-436 (BRCA1 mutant)	Western blot	concentration not given, 24 h	–	BRCA1 protein level	no effect
Cn1ncc2cc(-c3cncc(Cl)c3N3CCC4(CCNC4=O)CC3)ccc21	LS174T	gene expression, microarray, refers to: IL17C mRNA	concentration not given, 24 h	baseline: untreated cells	log2 fold change	-3.29
CN(C)c1ccc(-n2cc(COC(=O)[C@]3(C)C=C(C(=O)OC(C)(C)C)C(=O)CC3)nn2)cc1	AP-1 reporter HEK293	AP-1 reporter gene, luciferase reporter	3 µM, 6 h, with: PMA 6 ng/mL	baseline: PMA alone	luminescence relative to PMA	0.421
NC(=O)c1ccc(-c2ccccc2Cl)c2c3c([nH]c12)CC[C@@H](N)C3	Ramos	cell growth or viability	–	–	IC50	16.9 nM
CC(C)c1ccc(N(C)c2ccc3c(c2)OCC[C@H]3CNc2cnccc2C(=O)O)cc1	SW1463	cell growth or viability, ATP luminescence	7 days	–	IC50	9.24 nM
COC1=C2CC(C)CC(OC)C(O)C(C)C=C(C)C(OC(N)=O)C(OC)C=CC=C(C)C(=O)NC(=CC1=O)C2=O (centres unmarked)	Rh30	ChIP-seq, refers to: H3K36me3 peak	concentration not given, FLOT1 intron chr6:30688200-30712199	baseline: untreated control	log fold change	-0.505
CC(C)(C)c1cc(-c2ccc3cccnc3n2)nc(-c2ccc3cccnc3n2)c1.[Cl-].[Cl-].[Ru+2].c1ccc2cc3nc4c5cccnc5c5ncccc5c4nc3cc2c1	A-375	resazurin	with: light 733 nm, 9 mW, 100 J/cm2	–	EC50	5350 nM
CCN(C(=O)c1cc(F)ccc1Oc1nncnc1N1CCC2(C1)CN([C@H](CCCN(C)CCOC)C(C)C)C2)C(C)C	JAR	cell growth or viability	7 days	–	GI50	> 10000 nM
C1=[N+]2CCCC[N+]3=Cc4ccc5[n]4[Au-]23[n]2c1ccc2-c1nc2ccccc2nc1-5.F[P-](F)(F)(F)(F)F	COLO 205	NCI60 five-dose screen	–	–	TGI	4.64 -log M
Cc1ccncc1.[Cl-].[Cl-].[Ru+2].c1cc(-c2ccc3cccnc3n2)nc(-c2ccc3cccnc3n2)c1.c1ccc2cc3nc4c5cccnc5c5ncccc5c4nc3cc2c1	A-375	resazurin	with: light 523 nm, 20 mW, 100 J/cm2	–	EC50	1100 nM
CCN(CC)CC(=O)Nc1cccc(-n2cc(-c3ccc4ccc(-c5cn(-c6cccc(NC(=O)CN(CC)CC)c6)nn5)cc4c3)nn2)c1	RCC4	PCR angiogenesis array, refers to: TYMP	5 x IC50, 4 h, normoxia	baseline: untreated	fold regulation	-1.11 fold
Cc1cc(Cl)cc(-c2ccnc3cc(CN4C(=O)C5C(C4=O)C5(C)C)sc23)c1C[C@@H]1CNCCO1 (some centres unmarked)	CHP-212 parental (wild-type USP7)	annexin V-PI flow cytometry	0.3 µM, 48 h	–	viable cells (annexin V-/PI-)	58.2% and 71.5% and 62.7%

Excerpt of the above:
SMILES	cell line	test	conditions	scale	measurement	result
CO[C@@H]1[C@@H](OC(N)=O)[C@@H](O)[C@H](Oc2ccc3c(O)c(NC(=O)c4ccc(O)c(CC=C(C)C)c4)c(=O)oc3c2C)OC1(C)C	HCT-116 parental	–	100 µM, replicate 2	–	colony count	17
Cn1c(=O)n(C2CCC(=O)NC2=O)c2ccc(C3CCN(CC(=O)Nc4cccc(CS(=O)(=O)N5CC[C@H](Nc6cccc(-c7sc(C(=O)O)c(OCC(=O)O)c7Cl)c6)CC5(C)C)c4)CC3)cc21 (some centres unmarked)	B16-F10	HTRF, refers to: phospho-STAT1 Tyr701	10 µM, with: IFN-γ	baseline: DMSO	fold change	5.77 and 5.5 and 5.17 and 4.36 and 5.37 and 5.57
Cn1ncc(-c2ccc3c(=O)[nH]nc(CN)c3c2)c1-c1c(F)c(Cl)cc(OC2CC2)c1C#N	NCI-H292	cell viability, inhibitor, CellTiter-Glo	120 h, baseline-subtracted	–	IC50	150 nM
